Published values of several laboratories.
± gives the spread as reported.
UniProt Q9Y657, sequence (whole entry, looked up): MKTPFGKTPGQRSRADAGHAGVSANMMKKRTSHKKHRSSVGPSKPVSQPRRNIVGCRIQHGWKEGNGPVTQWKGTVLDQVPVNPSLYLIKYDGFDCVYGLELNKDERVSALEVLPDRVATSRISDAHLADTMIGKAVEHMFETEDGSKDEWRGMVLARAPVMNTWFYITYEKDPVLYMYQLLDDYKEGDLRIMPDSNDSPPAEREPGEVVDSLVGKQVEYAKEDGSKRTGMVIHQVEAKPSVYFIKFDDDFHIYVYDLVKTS
UniProt Q9UER7, sequence (55-144, looked up): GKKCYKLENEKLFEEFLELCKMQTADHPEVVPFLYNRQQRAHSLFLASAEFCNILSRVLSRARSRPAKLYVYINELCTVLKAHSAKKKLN
UniProt Q06911, sequence (whole entry, looked up): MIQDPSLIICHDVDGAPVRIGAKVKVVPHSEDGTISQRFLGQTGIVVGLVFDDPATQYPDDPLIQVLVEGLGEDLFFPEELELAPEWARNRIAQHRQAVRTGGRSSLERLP
UniProt Q9BY41, sequence (whole entry, looked up): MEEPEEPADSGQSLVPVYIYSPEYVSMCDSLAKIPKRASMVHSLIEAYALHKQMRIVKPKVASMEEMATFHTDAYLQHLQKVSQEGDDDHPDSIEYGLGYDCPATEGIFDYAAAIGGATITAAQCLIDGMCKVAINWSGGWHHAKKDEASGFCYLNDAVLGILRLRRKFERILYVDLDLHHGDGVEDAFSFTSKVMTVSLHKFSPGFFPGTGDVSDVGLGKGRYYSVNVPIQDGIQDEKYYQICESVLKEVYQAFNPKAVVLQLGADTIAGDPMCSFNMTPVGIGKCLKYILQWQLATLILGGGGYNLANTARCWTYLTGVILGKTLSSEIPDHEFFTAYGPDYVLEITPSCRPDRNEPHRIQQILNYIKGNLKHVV
UniProt P02554, sequence (whole entry, looked up): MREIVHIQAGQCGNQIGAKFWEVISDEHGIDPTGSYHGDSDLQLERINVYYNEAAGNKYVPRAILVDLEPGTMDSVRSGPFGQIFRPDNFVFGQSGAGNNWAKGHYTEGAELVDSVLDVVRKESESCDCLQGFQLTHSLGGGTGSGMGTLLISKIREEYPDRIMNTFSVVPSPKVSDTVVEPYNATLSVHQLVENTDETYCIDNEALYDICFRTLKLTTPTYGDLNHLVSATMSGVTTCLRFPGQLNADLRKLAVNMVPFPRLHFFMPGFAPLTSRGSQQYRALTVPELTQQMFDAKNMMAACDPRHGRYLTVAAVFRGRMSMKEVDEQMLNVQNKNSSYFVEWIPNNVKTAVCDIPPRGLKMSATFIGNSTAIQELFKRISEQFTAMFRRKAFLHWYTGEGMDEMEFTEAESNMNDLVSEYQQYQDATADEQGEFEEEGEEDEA
UniProt O04197, sequence (whole entry, looked up): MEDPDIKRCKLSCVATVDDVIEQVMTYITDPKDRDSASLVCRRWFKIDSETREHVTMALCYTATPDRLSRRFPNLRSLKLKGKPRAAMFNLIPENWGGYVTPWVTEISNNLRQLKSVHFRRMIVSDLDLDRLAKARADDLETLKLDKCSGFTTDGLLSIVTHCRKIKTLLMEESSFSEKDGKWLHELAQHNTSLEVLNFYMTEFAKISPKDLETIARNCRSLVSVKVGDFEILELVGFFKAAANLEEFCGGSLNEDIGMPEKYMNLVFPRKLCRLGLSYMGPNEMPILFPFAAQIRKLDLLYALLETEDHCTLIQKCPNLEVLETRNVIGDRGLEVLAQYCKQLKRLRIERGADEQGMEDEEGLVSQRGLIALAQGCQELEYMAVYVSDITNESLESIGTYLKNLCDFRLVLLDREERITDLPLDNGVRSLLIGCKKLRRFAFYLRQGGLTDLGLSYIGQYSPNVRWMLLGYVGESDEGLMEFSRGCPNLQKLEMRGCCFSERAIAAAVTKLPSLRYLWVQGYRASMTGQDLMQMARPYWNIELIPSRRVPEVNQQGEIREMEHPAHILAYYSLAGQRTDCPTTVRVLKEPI
UniProt P11362, sequence (whole entry, looked up): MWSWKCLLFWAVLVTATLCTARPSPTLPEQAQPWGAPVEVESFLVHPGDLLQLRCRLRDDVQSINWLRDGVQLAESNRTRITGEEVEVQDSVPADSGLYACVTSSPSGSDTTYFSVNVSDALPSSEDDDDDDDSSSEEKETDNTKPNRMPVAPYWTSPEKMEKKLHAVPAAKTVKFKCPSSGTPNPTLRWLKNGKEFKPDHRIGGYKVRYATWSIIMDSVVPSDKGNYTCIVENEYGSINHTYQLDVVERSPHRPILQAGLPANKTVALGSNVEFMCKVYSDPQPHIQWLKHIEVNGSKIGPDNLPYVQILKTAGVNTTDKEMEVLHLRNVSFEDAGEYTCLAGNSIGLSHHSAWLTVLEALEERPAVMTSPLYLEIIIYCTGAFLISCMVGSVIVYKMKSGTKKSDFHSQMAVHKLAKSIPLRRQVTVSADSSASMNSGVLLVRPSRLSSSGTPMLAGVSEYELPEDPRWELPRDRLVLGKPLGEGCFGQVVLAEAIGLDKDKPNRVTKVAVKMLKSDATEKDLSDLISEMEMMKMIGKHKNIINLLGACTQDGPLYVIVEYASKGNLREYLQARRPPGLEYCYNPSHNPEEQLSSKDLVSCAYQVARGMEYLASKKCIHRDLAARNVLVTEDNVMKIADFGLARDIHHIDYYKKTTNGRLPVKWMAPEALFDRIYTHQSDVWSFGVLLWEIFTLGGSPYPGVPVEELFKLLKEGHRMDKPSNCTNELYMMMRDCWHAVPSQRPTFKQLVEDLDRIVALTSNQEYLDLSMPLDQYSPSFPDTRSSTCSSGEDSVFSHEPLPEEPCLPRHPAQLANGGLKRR
UniProt P17931, sequence (whole entry, looked up): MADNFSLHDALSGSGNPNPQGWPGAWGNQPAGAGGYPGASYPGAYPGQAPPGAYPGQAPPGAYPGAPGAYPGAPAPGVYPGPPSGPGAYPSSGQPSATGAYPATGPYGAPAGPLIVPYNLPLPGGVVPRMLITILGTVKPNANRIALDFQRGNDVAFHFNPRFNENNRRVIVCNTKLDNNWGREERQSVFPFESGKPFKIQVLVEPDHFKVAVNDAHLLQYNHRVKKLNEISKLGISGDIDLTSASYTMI
UniProt P07237, sequence (whole entry, looked up): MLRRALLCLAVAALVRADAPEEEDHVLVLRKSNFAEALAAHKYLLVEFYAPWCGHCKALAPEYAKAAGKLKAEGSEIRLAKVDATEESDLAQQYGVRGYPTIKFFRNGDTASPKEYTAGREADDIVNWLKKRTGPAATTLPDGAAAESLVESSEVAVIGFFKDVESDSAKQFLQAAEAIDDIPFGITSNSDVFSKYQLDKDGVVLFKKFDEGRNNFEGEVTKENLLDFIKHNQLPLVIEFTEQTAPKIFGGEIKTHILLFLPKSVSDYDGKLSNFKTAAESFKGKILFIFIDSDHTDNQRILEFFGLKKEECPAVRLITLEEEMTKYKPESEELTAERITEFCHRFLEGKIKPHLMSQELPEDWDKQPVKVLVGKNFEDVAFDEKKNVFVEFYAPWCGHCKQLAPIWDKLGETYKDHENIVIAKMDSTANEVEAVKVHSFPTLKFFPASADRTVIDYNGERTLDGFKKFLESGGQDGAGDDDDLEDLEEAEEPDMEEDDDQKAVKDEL
UniProt P0A988, sequence (whole entry, looked up): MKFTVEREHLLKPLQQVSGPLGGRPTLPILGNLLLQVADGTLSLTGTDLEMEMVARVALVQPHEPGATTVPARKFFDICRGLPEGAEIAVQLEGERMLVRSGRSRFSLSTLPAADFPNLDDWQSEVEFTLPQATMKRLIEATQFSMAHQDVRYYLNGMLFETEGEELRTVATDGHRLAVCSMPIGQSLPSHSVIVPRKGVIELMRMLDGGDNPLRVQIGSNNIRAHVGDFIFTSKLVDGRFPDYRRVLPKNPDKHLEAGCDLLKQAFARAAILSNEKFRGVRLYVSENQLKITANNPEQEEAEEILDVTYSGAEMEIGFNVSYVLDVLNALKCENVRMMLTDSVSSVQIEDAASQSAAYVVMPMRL
UniProt P02550, sequence (whole entry, looked up): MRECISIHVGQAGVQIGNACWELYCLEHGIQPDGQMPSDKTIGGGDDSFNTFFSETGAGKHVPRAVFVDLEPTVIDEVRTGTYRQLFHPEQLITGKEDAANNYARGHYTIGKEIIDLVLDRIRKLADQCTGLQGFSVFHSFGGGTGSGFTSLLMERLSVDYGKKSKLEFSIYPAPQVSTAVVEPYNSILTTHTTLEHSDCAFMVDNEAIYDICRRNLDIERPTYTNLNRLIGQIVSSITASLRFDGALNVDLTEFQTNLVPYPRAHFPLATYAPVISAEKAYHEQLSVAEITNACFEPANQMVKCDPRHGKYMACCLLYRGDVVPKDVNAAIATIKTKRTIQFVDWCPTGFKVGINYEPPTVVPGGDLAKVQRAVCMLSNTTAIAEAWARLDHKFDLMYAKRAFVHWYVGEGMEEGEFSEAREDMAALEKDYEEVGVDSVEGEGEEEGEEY
UniProt O15393, sequence (whole entry, unmodified, looked up): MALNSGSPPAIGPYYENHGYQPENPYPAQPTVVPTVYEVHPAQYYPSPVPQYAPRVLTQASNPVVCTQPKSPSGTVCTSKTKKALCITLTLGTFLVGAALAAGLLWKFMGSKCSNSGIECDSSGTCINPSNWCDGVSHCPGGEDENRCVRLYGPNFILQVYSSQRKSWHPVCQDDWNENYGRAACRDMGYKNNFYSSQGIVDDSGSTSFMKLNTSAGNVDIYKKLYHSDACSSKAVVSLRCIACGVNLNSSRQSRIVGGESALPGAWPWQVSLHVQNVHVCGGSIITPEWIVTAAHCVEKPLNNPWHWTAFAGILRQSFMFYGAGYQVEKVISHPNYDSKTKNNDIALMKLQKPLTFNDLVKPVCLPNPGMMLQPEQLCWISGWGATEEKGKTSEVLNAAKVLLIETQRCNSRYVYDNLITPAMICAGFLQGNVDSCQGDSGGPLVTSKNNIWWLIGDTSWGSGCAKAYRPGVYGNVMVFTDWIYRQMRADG

CSCC[C@H](NC(C)=O)C(=O)N[C@H]1CSCc2cc3cc(c2)CSC[C@@H](C(=O)N[C@H](C(=O)N[C@@H](C)C(=O)N[C@@H](Cc2ccc(O)cc2)C(=O)N[C@@H](CCCCN)C(=O)N[C@@H](Cc2ccc(O)cc2)C(=O)NCC(=O)N[C@@H](CO)C(=O)NCC(=O)N[C@@H](CO)C(=O)NCC(=O)N[C@@H](CO)C(=O)N[C@@H](CC(=O)O)C(=O)N[C@@H](Cc2ccc(O)cc2)C(=O)N[C@@H](CCCCN)C(=O)N[C@@H](CC(=O)O)C(=O)N[C@@H](CC(=O)O)C(=O)N[C@@H](CC(=O)O)C(=O)N[C@@H](CC(=O)O)C(=O)N[C@@H](CCCCN)C(N)=O)[C@@H](C)O)NC(=O)[C@H](Cc2ccccc2)NC(=O)[C@H](CCCCN)NC(=O)[C@H](CSC3)NC(=O)[C@H](Cc2ccccc2)NC(=O)[C@H](CC(N)=O)NC(=O)[C@H](CC(C)C)NC(=O)[C@H]([C@@H](C)O)NC1=O gave a Kd of over 10000 nM (Fibroblast growth factor receptor 1 (FGFR1, Homo sapiens, UniProt P11362); binding, BLI).
O=C(Nc1ccc([As](O)O)cc1)c1cc(C(=O)Nc2ccc([As](O)O)cc2)cc(C(=O)Nc2ccc([As](O)O)cc2)c1 gave a Kd of 100 nM (Protein disulfide-isomerase, reduced (P4HB, Homo sapiens, UniProt P07237); binding, absorbance titration; pH 7.5, 25 °C).
CNC(=N)NCCC[C@H](NC(=O)[C@H](C)NC(=O)[C@@H](NC(=O)[C@H](CCC(N)=O)NC(=O)[C@H](CCCC[N+](C)(C)C)NC(=O)[C@@H](NC(=O)[C@H](CCCNC(=N)N)NC(=O)[C@H](C)N)[C@@H](C)O)[C@@H](C)O)C(=O)N[C@@H](CCCCN)C(=O)N[C@@H](CO)C(=O)O has a Kd of 139 nM (Spindlin-1 (SPIN1, Homo sapiens, UniProt Q9Y657); binding, ITC; pH 7.5).
The Kd of CC[C@H](C)[C@H](NC(=O)CNC(C)=O)C(=O)N[C@@H](CCCNC(=N)N)C(=O)N[C@@H](CCC(=O)O)C(=O)N[C@@H](C)C(=O)N[C@H](C(=O)N[C@@H](CC(C)C)C(=O)N[C@@H](CCCNC(=N)N)C(=O)N[C@@H](C)C(=O)N[C@@H](Cc1c[nH]c2ccccc12)C(=O)N[C@@H](CCC(=O)O)C(=O)N[C@@H](CCCNC(=N)N)C(=O)N[C@@H](CCCNC(=N)N)C(=O)N[C@@H](Cc1ccc(O)cc1)C(=O)NCC(N)=O)[C@@H](C)O is reported as 490 ± 90 nM (Antirepressor protein CarS (carS, Myxococcus xanthus, UniProt Q06911); isothermal titration calorimetry; pH 7.5, 25 °C).
With CC[C@H](C)[C@H](NC(=O)[C@H](Cc1cnc[nH]1)NC(=O)[C@H](CCCCNC(=O)[C@@H](NC(=O)[C@H](CCCCN)NC(=O)[C@H](Cc1ccccc1)NC(=O)[C@H](CCCCNC(=O)[C@H](CC(C)C)NC(=O)[C@@H]1CCCN1C(=O)[C@H](CCCCN)NC(=O)C[C@@H]1O[C@@H](C)[C@@H](O)[C@@H](O)[C@@H]1O)NC(=O)[C@H](CC(C)C)NC(=O)[C@@H]1CCCN1C(=O)[C@H](CCCCN)NC(=O)C[C@@H]1O[C@@H](C)[C@@H](O)[C@@H](O)[C@@H]1O)[C@@H](C)CC)NC(=O)[C@@H](NC(=O)[C@H](CCCCN)NC(=O)[C@H](Cc1ccccc1)NC(=O)[C@H](CCCCNC(=O)[C@H](CC(C)C)NC(=O)[C@@H]1CCCN1C(=O)[C@H](CCCCN)NC(=O)C[C@@H]1O[C@@H](C)[C@@H](O)[C@@H](O)[C@@H]1O)NC(=O)[C@H](CC(C)C)NC(=O)[C@@H]1CCCN1C(=O)[C@H](CCCCN)NC(=O)C[C@@H]1O[C@@H](C)[C@@H](O)[C@@H](O)[C@@H]1O)[C@@H](C)CC)C(N)=O the Kd was 66 nM (Fucose-binding lectin PA-IIL (lecB, Pseudomonas aeruginosa, UniProt Q9HYN5); binding, ITC; pH 7.5).
For CC[C@H](C)[C@H](NC(=O)[C@H](CCCNC(=N)N)NC(=O)[C@H](CC(N)=O)NC(=O)[C@H](CCC(=O)O)NC(=O)[C@@H]1CCCN1C(=O)[C@H](CC(=O)O)NC(=O)[C@H](CC(N)=O)NC(=O)[C@H](CC(=O)O)NC(=O)[C@H](CC(=O)O)NC(=O)[C@@H](N)CO)C(=O)N[C@@H](C)C(=O)N[C@@H](CCCCN)C(=O)N[C@@H](CCCCN)C(=O)N[C@@H](CCSC)C(=O)N[C@@H](CC(C)C)C(=O)N[C@@H](CC(C)C)C(=O)N[C@@]1(C)CCCC=CCCC[C@@](C)(C(=O)N[C@@H](CC(N)=O)C(=O)N[C@@H](CC(C)C)C(=O)N[C@@H](CO)C(=O)O)NC(=O)[C@H](CCCCN)NC(=O)[C@H]([C@@H](C)CC)NC(=O)[C@H](CCC(=O)O)NC1=O, the Kd was 340 nM (Death domain-associated protein 6, residues 55-144 (Homo sapiens, UniProt Q9UER7); isothermal titration calorimetry; pH 7.5, 25 °C).
With C/C=C/C(=O)NC[C@H](NC(=O)[C@H](CC1CCCCC1)NC(=O)[C@H](CCC(N)=O)NC(C)=O)C(=O)N[C@@H](CC(C)C)C(=O)N[C@@H](Cc1ccccc1)C(=O)O the Kd was 402 nM (Beta sliding clamp (Escherichia coli, UniProt P0A988); binding, ITC).
With N=C(N)NCCC[C@H](NC(=O)[C@H](Cc1ccccc1)NC(=O)[C@@H]1CCCN1C(=O)[C@H](CO)NC(=O)[C@H](Cc1ccccc1)NC(=O)CNC(=O)[C@@H]1CCCN1C(=O)[C@@H]1CCCN1C(=O)[C@@H](N)CCCNC(=N)N)C(=O)N[C@@H](CCCCNS(=O)(=O)c1ccc(C2=c3cc4c5c(c3Oc3c2cc2c6c3CCCN6CCC2)CCC[N+]=5CCC4)c(S(=O)(=O)[O-])c1)C(=O)O the Kd was 10000 ± 500 nM (Oligopeptide-binding protein OppA (oppA, Lactococcus lactis subsp. lactis, UniProt Q07741); binding, fluorescence anisotropy; pH 5, 18 °C, together with: dye-labelled peptide).
With CC(C)C[C@H](NC(=O)[C@H](CCCNC(=N)N)NC(=O)[C@H](CCC(=O)O)NC(=O)[C@H](CCCCN)NC(=O)[C@H](CCCNC(=N)N)NC(=O)[C@H](CCCCN)NC(=O)[C@H](CCC(=O)O)NC(=O)[C@H](CC(C)C)NC(=O)[C@H](Cc1ccccc1)NC(=O)[C@H](CCCNC(=N)N)NC(=O)[C@H](C)NC(=O)[C@H](CC(C)C)NC(=O)[C@H](CO)NC(=O)[C@H](C)NC(=O)[C@H](CCCCN)NC(=O)[C@H](CCCNC(=N)N)NC(=O)[C@H](C)NC(=O)[C@H](CCC(N)=O)NC(=O)[C@@H]1CCCN1C(=O)[C@@H](NC(=O)[C@H](CO)NC(=O)c1ccc2c(c1)C(=O)OC21c2ccc(N(C)C)cc2Oc2cc(N(C)C)ccc21)C(C)C)C(=O)O the Kd was 15 ± 4.3 nM (COI1, with JA-Ile (Arabidopsis thaliana, UniProt O04197); COI1-JAZ binding, fluorescence anisotropy; pH 7.8, 25 °C, together with: IP5 100 nM; lower = stronger binding).
The Kd of CC(=O)N[C@H]1C(O)O[C@H](CO)[C@@H](O[C@@H]2O[C@H](CO)[C@H](O)[C@H](O)[C@H]2O)[C@@H]1O (stereo partly drawn) is reported as 33000 nM (Galectin-3 (LGALS3, Homo sapiens, UniProt P17931); isothermal titration calorimetry; full-length protein).
With CC[C@H](C)[C@H](NC(=O)[C@H](CCC(N)=O)NC(=O)[C@@H](NC(=O)[C@H](CO)NC(=O)CNC(=O)CNC(=O)CNC(=O)[C@@H]1CCCN1C(=O)[C@@H](NC(=O)[C@H](Cc1c[nH]cn1)NC(=O)[C@H](CCCCN)NC(=O)[C@@H](N)CCCCN)C(C)C)C(C)C)C(=O)N[C@H](C(=O)N[C@@H](Cc1ccc(O)cc1)C(=O)N[C@@H](CCCCN)C(=O)N1CCC[C@H]1C(=O)N[C@H](C(=O)N[C@@H](CC(=O)O)C(=O)N[C@@H](CC(C)C)C(=O)NCC(=O)NCC(=O)NCC(=O)N[C@@H](CSC1CC(=O)N(c2ccc3c(c2)C(=O)OC32c3ccc(N(C)C)cc3Oc3cc(N(C)C)ccc32)C1=O)C(=O)O)C(C)C)C(C)C (stereo partly drawn) the Kd was 40000 nM (Tubulin alpha-1A/beta chain (Sus scrofa, UniProt P02550+P02554); binding, equilibrium dialysis; pH 6.9, 25 °C).
O=C1N[C@@H](Cc2ccccc2)C(=O)N2CCCC[C@@H]2C(=O)N[C@@H](CCCCCC(=O)[C@@H]2CO2)C(=O)N[C@H]1Cc1ccccc1 gave a Kd of 3 ± 1 nM (Histone deacetylase 8 (HDAC8, Homo sapiens, UniProt Q9BY41)).
The Kd of O=C(NCc1ccc(Cl)cn1)C(=O)C(Cc1ccccc1)NC(=O)C1CC(F)CN1C(=O)C(NC(=O)C1CCC(F)(F)CC1)C1CCCCC1 (stereo not drawn) is reported as 10100 nM (Transmembrane protease serine 2 (TMPRSS2, Homo sapiens, UniProt O15393, Q253D/R252D/R255K/S251D/S254D); binding).
The Kd of CC[C@H](C)[C@H](NC(=O)[C@H](CCC(=O)O)NC(=O)[C@H](CS)NC(=O)[C@@H](NC(=O)CNC(=O)[C@H](CO)NC(=O)[C@H](CC(C)C)NC(=O)[C@H](CO)NC(=O)[C@H](CCC(=O)O)NC(=O)[C@H](CCCNC(=N)N)NC(=O)[C@@H](NC(=O)[C@H](C)NC(=O)[C@H](CS)NC(=O)[C@H](CCCNC(=N)N)NC(=O)CNC(=O)[C@@H](NC(=O)[C@H](CCCNC(=N)N)NC(=O)[C@H](CS)NC(=O)[C@H](Cc1ccc(O)cc1)NC(=O)[C@H](CS)NC(=O)[C@@H](NC(=O)[C@H](C)N)[C@@H](C)O)[C@@H](C)O)[C@@H](C)O)C(C)C)C(=O)N[C@@H](CO)C(=O)NCC(=O)N[C@@H](CCCNC(=N)N)C(=O)N[C@@H](CC(C)C)C(=O)N[C@@H](Cc1ccc(O)cc1)C(=O)N[C@@H](CCCNC(=N)N)C(=O)N[C@@H](CC(C)C)C(=O)N[C@@H](CS)C(=O)N[C@@H](CS)C(=O)N[C@@H](CCCNC(=N)N)C(=O)O is reported as 0.331 ± 0.142 nM (Zn(II); metal binding; pH 7.4, one-site model, anaerobic).
CCCCCCCC(=O)N[C@@H](CCCCNS(=O)(=O)c1cccc2c(N(C)C)cccc12)C(=O)N[C@H](C(=O)N[C@@H](CCN)C(=O)N[C@H]1CCNC(=O)[C@H]([C@@H](C)O)NC(=O)[C@H](CCN)NC(=O)[C@H](CCN)NC(=O)[C@H](CC(C)C)NC(=O)[C@@H](Cc2ccccc2)NC(=O)[C@H](CCN)NC1=O)[C@@H](C)O gave a Kd of 600 ± 100 nM (Klebsiella pneumoniae ATCC 13883 lipopolysaccharide; fluorometric titration; pH 7.0).

Repeated from above:
With CC(C)C[C@H](NC(=O)[C@H](CCCNC(=N)N)NC(=O)[C@H](CCC(=O)O)NC(=O)[C@H](CCCCN)NC(=O)[C@H](CCCNC(=N)N)NC(=O)[C@H](CCCCN)NC(=O)[C@H](CCC(=O)O)NC(=O)[C@H](CC(C)C)NC(=O)[C@H](Cc1ccccc1)NC(=O)[C@H](CCCNC(=N)N)NC(=O)[C@H](C)NC(=O)[C@H](CC(C)C)NC(=O)[C@H](CO)NC(=O)[C@H](C)NC(=O)[C@H](CCCCN)NC(=O)[C@H](CCCNC(=N)N)NC(=O)[C@H](C)NC(=O)[C@H](CCC(N)=O)NC(=O)[C@@H]1CCCN1C(=O)[C@@H](NC(=O)[C@H](CO)NC(=O)c1ccc2c(c1)C(=O)OC21c2ccc(N(C)C)cc2Oc2cc(N(C)C)ccc21)C(C)C)C(=O)O the Kd was 15 ± 4.3 nM (COI1, with JA-Ile (Arabidopsis thaliana, UniProt O04197); COI1-JAZ binding, fluorescence anisotropy; pH 7.8, 25 °C, together with: IP5 100 nM; lower = stronger binding).
The Kd of CC(=O)N[C@H]1C(O)O[C@H](CO)[C@@H](O[C@@H]2O[C@H](CO)[C@H](O)[C@H](O)[C@H]2O)[C@@H]1O (stereo partly drawn) is reported as 33000 nM (Galectin-3 (LGALS3, Homo sapiens, UniProt P17931); isothermal titration calorimetry; full-length protein).
